Experimental data of several laboratories.
Every numbered part comes from another study and shows a few of its results, in no order.

Series 1
Target: Interferon regulatory factor 5, full length, phosphomimetic (IRF5, Homo sapiens, UniProt Q13568-2, residues 1-514, S451D/S453D/S456D/S462D)
Method: protein-binding microarray
Form: double-stranded DNA, one strand shown
Sample: in vitro
Tested at: 940 nM top
Notes: 60-bp whole probe
Added: salmon DNA 0.4 mg/ml
Baseline: random background probes
Reading: higher = stronger binding
Measurement: fitted relative affinity
Constant ends, left off below: GCCTAGCAC … GTCTTGATTCGCTTGACGCTGCTG
Sequence = GACGGTCTCCTCATCCTGACGTGCTAG; result = 0.0897 z-score
Sequence = ACTCTTCTTTTTTTTCTTTAGTGCTAG; result = 1.9 z-score
Sequence = TCAATTTCCACTTTCTTACTGTGCTAG; result = 1.96 z-score
Sequence = GACGGTCTACTACTGCTGACGTGCTAG; result = -0.166 z-score
Sequence = GGGGGAAATGGGAAACCCGGGGTGCTA; result = 1.07 z-score
Sequence = GACGGTTCCGGTTTAGGGACGTGCTAG; result = 3.74 z-score
Sequence = TTAGATCTCAGCCTCGATTAGTGCTAG; result = 0.0218 z-score
Sequence = GACGATCTCGGTATCGGGACGTGCTAG; result = 2.61 z-score
Sequence = TTAGGTTTCGACTATCGGTAAGTGCTA; result = 9.59 z-score
Sequence = GACGAACTGGGGACCGGAGACGTGCTA; result = -0.234 z-score
Sequence = TTAGATATAAGTTTCGATTAGTGCTAG; result = 6.9 z-score

Series 2
Target: Prothrombin, mature alpha-thrombin (F2, Homo sapiens, UniProt P00734)
Method: aptamer microarray, sandwich
Form: DNA with 2'F-ANA
Sample: in vitro
Tested at: 200 nM
Notes: whole 15-mer aptamer, many near background
Added: Cy3 exosite-II aptamer, 400 nM
Reading: higher = stronger binding
Measurement: mean fluorescence intensity
Sequence: GGTTGGTGTGGTTGG
Modification = 2'F-ANA at 4 5 7 8 9 10 11 13 15; result = 46.6 a.u.
Modification = 2'F-ANA at 1 2 4 5 8 9 10 11 13 15; result = 125 a.u.
Modification = 2'F-ANA at 4 6 8 11 13; result = 208 a.u.
Modification = 2'F-ANA at 1 2 7 9 11 12 13 15; result = 221 a.u.
Modification = 2'F-ANA at 2 3 7 12 13 14 15; result = 484 a.u.
Modification = 2'F-ANA at 1 4 5 6 9 10 12; result = 52.9 a.u.
Modification = 2'F-ANA at 3 7 10 11 12; result = 704 a.u.
Modification = 2'F-ANA at 1 2 4 5 7 9 10 13 14 15; result = 49.4 a.u.
Modification = 2'F-ANA at 2 3 4 5 6 9 10 12; result = 60.7 a.u.
Modification = 2'F-ANA at 1 2 4 6 8 9 11 12 15; result = 204 a.u.
Modification = 2'F-ANA at 3 5 6 9 10 11 12 13 15; result = 59.5 a.u.

Series 3
Target: Sal-like protein 4, full length isoform A (SALL4, Homo sapiens, UniProt Q9UJQ4, residues 1-1053)
UniProt Q9UJQ4, sequence (whole entry, looked up): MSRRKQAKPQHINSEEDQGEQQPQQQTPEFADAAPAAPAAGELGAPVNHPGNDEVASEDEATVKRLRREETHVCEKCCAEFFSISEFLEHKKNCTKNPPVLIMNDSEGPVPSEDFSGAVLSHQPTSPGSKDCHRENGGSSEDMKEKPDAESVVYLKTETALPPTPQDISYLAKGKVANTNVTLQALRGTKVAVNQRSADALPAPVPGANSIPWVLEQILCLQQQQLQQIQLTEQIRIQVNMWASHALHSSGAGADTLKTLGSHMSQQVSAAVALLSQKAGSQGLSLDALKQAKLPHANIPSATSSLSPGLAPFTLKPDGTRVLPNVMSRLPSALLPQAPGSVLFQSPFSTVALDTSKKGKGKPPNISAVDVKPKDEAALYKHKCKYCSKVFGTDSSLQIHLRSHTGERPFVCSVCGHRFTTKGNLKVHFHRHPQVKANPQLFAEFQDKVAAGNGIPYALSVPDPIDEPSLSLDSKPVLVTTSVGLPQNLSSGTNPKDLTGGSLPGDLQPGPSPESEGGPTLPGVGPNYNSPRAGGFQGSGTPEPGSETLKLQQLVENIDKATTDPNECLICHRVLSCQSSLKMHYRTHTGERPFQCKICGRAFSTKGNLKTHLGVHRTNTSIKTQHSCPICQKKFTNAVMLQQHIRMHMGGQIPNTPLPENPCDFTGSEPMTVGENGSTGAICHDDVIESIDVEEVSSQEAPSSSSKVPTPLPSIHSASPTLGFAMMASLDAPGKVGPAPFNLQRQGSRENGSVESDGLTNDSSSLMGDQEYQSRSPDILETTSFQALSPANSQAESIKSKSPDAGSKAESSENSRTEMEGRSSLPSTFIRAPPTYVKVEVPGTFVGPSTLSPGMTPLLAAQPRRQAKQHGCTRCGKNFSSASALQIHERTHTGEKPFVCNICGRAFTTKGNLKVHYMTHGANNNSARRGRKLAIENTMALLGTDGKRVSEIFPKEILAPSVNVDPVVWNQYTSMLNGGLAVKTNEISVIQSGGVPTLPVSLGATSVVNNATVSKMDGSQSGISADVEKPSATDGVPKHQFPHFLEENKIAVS
Method: universal PBM
Form: double-stranded DNA, one strand shown
Sample: in vitro
Tested at: 600 nM
Notes: 8-mer, flanks averaged, mean of replicates
Reading: higher = stronger binding
Measurement: E-score
Sequence = AAGTCGAT; result = 0.0816
Sequence = ACCTAGGT; result = -0.189
Sequence = ACTATTAC; result = 0.245
Sequence = ATGTGCCG; result = -0.126
Sequence = CGACGTAA; result = 0.00352
Sequence = AAAAAGTA; result = 0.283
Sequence = CTCAGACA; result = 0.0969
Sequence = CCAAAGGG; result = -0.205
Sequence = GTCGTAAA; result = 0.0896
Sequence = GGTCGGAA; result = -0.146

Further values, each from its own experiment
Substance = PhoQ, residues 284 288 289 292 302 303 ALAMYF; target = PhoP, residues 12 14 15 18 19 LYFRQ (Escherichia coli, UniProt P23836); test = Sort-seq, measured: YFP reporter; system = E. coli; conditions = PhoQ-PhoP variant library, added: 10 µM Mg2+; scale = baseline: high Mg2+ state, higher = stronger signaling; measurement = fold induction; result = 9.57

Some of these lines once more (series 1):
Sequence = GACGGTTCCGGTTTAGGGACGTGCTAG; result = 3.74 z-score
Sequence = TTAGATCTCAGCCTCGATTAGTGCTAG; result = 0.0218 z-score
Sequence = GACGATCTCGGTATCGGGACGTGCTAG; result = 2.61 z-score
Sequence = TTAGGTTTCGACTATCGGTAAGTGCTA; result = 9.59 z-score
